Published values of several laboratories.
Protocols differ between the studies behind these lines. ± marks the error that the study gave. No end group written: not given here. The star is where a group is joined. *: point of attachment.
Ryanodine receptor 1: Ryanodine receptor 1 (Oncorhynchus mykiss, UniProt A0A8C7UX14)
CNR1: Cannabinoid receptor 1 (CNR1, Homo sapiens, UniProt P21554)
UniProt P21554, sequence (whole entry, looked up): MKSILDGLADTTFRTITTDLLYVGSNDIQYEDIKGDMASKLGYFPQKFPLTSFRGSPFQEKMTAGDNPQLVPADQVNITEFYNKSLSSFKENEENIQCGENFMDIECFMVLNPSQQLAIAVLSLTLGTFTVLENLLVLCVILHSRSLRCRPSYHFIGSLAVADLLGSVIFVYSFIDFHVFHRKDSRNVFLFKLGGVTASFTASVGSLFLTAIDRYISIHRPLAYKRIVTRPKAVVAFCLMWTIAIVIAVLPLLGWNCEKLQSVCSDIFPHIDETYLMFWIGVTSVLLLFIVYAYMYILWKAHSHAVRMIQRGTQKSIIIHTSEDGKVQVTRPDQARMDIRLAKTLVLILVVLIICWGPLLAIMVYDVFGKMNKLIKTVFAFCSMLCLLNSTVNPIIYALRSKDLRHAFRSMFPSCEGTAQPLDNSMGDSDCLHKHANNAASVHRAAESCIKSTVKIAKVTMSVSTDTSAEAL
UniProt Q9GZQ6, sequence (whole entry, looked up): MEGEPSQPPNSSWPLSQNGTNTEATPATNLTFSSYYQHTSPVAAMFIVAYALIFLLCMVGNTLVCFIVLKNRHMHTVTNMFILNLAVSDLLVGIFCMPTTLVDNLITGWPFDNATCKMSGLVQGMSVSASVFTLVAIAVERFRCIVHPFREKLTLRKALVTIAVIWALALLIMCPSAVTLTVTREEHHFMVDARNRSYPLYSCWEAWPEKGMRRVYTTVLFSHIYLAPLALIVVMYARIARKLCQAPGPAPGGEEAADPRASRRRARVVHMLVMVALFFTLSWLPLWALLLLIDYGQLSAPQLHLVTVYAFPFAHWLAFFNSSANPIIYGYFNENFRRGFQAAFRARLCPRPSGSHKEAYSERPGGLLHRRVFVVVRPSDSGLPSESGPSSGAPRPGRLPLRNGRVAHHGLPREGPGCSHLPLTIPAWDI
UniProt P02920, sequence (whole entry, unmodified, looked up): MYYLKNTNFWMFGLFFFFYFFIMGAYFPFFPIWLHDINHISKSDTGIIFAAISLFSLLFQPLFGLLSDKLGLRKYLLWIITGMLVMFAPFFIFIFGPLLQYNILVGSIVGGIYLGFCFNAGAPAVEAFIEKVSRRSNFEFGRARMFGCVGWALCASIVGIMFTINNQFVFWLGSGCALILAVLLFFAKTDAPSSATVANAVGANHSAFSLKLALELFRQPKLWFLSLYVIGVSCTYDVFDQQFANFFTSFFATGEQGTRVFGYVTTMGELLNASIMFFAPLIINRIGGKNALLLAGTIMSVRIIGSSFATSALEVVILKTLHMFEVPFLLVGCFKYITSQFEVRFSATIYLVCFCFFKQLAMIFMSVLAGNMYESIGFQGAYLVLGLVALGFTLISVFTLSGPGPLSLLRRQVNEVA
UniProt P50225, sequence (whole entry, looked up): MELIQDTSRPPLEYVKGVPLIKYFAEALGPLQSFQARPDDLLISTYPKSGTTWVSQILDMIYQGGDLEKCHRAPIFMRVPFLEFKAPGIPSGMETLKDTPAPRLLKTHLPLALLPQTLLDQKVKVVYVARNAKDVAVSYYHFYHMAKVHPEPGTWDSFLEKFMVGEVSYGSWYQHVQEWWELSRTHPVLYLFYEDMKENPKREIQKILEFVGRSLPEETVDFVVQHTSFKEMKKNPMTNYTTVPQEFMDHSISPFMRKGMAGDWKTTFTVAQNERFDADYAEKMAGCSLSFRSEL
UniProt P12369, sequence (whole entry, unmodified, looked up): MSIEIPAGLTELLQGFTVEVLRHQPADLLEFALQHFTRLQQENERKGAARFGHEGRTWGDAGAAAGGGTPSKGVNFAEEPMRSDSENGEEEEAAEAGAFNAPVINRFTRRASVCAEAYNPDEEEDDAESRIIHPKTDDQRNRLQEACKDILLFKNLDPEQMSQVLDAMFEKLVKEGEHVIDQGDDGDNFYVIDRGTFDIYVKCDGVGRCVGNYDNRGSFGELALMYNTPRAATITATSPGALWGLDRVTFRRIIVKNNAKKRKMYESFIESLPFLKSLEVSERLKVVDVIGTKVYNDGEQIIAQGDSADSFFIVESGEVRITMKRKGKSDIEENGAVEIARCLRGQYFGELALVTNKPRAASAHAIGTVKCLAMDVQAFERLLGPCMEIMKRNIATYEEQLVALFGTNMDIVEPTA
UniProt Q9BY41, sequence (whole entry, looked up): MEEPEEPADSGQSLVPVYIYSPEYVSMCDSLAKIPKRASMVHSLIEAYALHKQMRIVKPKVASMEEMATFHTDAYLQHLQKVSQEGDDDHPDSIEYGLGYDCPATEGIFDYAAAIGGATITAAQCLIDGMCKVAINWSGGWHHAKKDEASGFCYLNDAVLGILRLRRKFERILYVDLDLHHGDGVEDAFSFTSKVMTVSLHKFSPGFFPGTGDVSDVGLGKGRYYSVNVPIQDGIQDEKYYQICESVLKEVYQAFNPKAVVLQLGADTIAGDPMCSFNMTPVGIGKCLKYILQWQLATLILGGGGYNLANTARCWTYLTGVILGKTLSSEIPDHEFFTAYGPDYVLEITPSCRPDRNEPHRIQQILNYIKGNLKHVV
UniProt P18508, sequence (whole entry, unmodified, looked up): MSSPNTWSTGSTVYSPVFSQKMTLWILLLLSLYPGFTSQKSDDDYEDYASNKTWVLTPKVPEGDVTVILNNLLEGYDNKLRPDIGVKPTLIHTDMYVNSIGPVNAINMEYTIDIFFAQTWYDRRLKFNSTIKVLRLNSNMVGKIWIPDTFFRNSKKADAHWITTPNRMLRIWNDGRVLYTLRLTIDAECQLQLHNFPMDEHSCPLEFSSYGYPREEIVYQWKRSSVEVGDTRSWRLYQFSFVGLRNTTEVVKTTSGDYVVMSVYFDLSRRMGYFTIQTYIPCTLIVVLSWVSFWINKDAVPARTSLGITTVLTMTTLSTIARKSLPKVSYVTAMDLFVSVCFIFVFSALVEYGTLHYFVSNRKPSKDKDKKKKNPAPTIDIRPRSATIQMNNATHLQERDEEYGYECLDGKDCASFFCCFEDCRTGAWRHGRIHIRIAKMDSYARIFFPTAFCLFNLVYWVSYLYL
UniProt P06276, sequence (whole entry, looked up): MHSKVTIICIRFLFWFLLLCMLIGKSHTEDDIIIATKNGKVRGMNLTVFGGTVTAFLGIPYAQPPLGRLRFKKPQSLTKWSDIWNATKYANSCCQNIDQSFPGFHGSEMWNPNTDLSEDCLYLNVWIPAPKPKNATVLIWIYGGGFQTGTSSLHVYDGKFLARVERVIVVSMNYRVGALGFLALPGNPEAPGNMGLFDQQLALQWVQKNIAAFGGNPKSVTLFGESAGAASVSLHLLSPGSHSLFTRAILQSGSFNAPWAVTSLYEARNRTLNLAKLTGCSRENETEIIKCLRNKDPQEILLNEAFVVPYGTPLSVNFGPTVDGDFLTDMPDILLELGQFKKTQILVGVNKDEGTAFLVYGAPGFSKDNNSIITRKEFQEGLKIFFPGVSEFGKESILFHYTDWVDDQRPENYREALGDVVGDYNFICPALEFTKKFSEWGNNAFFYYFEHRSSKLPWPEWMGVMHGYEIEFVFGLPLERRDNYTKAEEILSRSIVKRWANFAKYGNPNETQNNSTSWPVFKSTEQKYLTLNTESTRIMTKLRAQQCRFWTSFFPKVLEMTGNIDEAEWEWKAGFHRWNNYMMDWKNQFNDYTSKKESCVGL
UniProt Q92915, sequence (whole entry, looked up): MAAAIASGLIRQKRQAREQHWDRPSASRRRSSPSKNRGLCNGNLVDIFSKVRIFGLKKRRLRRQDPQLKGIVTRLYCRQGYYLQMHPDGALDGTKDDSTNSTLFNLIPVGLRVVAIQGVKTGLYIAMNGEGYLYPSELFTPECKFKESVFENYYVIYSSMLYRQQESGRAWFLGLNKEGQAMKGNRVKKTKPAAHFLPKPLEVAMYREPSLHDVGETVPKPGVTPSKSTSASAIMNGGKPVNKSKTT
UniProt P13674, sequence (whole entry, looked up): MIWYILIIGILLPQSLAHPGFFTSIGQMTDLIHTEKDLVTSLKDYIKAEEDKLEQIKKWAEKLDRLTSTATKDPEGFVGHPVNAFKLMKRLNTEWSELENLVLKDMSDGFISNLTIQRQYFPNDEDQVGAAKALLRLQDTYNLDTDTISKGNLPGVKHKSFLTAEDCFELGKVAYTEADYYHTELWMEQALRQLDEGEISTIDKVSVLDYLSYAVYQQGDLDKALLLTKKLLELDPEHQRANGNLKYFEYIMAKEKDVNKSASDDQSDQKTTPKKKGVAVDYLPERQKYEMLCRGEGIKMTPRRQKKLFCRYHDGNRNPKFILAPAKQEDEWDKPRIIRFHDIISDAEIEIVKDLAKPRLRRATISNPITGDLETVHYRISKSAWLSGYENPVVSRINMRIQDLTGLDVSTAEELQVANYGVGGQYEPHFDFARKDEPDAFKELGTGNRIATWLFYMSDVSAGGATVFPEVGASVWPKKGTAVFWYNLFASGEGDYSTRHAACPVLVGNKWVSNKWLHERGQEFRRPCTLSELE
UniProt P47870, sequence (whole entry, unmodified, looked up): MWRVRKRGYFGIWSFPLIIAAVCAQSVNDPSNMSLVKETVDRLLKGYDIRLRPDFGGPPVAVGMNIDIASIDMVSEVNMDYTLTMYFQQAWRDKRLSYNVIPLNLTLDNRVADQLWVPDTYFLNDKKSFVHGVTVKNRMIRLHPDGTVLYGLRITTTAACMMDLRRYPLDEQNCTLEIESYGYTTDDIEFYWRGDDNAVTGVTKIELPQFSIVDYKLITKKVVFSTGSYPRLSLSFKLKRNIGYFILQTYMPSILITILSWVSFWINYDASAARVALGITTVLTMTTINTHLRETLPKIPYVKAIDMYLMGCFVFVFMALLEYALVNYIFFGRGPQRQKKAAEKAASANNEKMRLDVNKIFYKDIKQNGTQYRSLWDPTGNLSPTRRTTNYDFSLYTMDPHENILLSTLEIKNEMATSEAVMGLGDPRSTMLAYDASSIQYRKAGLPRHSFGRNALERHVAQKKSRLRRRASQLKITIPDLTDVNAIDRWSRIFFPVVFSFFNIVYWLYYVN

`Clc1cc(Cl)c(-c2c(Cl)c(Cl)cc(Cl)c2Cl)cc1Cl` has an EC20 of 7.11 µM (Ryanodine receptor 1; [3H]ryanodine binding; rainbow trout, skeletal muscle microsomes).
The retention time of `COc1cc2c3c(c1OC)Oc1ccc(cc1)C[C@@H]1c4c(cc(OC)c(OC)c4Oc4ccc(cc4)C[C@H]3N(C)CC2)CCN1C` is reported as 17.3 min (Heat shock protein HSP 90-alpha, C-terminal domain (HSP90AA1, Homo sapiens, UniProt P07900); binding, zonal affinity chromatography; pH 7.4, 25 °C).
For `Ac-QDEVD-pNA (N-acetyl, C-pNA; pNA = O=[N+]([O-])c1ccc(N*)cc1)`, the kcat/Km was 1170 ± 167 M⁻¹ s⁻¹ (Caspase-8 (CASP8, Homo sapiens, UniProt Q14790); substrate hydrolysis, substrate, colorimetric; pH 7.5).
For `CCc1c(C(=O)NCCc2ccc(N3CCCCC3)cc2)[nH]c2ccc(Cl)cc12`, “Emax of anandamide” read 28.4 ± 2.07% (CNR1; cAMP inhibition, negative allosteric modulator; HEK-CRE; 1 µM, 4 h, together with: forskolin 10 µM).
`NC(=O)N1CCC[C@H](NC(=O)c2nn(Cc3ccc(F)cc3)c3ccccc23)C1` gave an Emax of 105 ± 1% (CNR1; calcium mobilization, agonist; CHO-K1 expressing Gαq16; relative to: CP55,940 maximum).
`Clc1ccc(-c2ccc(Cl)c(Cl)c2)c(Cl)c1` gave an EC20 of 10.7 µM (Ryanodine receptor 1; [3H]ryanodine binding; rainbow trout, skeletal muscle microsomes).
With `C[C@H]1CCCC(=O)CCC/C=C/c2cc(O)cc(O)c2C(=O)O1` the Km was 45.3 ± 1.24 mM (zhd101 (Clonostachys rosea, UniProt Q8NKB0, E171K); substrate, HPLC; 10 min, pH 5.5, 37 °C, 1% acetonitrile).
With `O=S(=O)(O)Oc1ccc(-c2ccc(Cl)cc2)c(Cl)c1` the Vmax was 10.7 ± 0.9 nmol/min/mg (sulfatase, human liver microsomes; substrate; pH 7.4, 37 °C).
Under binding, `COc1cc(CN2CCc3c(cc(Cn4ccn(C)c4=N)cc3-c3ccc(F)cc3C)C2=O)cc(OC)c1` is recorded as “no effect” (WD repeat-containing protein 5, with MLL1 and RBBP5 (WDR5, Homo sapiens, UniProt P61964); RBBP5 binding, co-immunoprecipitation; MV4-11; 1 µM, 4 h).
For `NC(=O)c1cccc(CNC(=O)c2nn(Cc3ccc(F)cc3)c3ccccc23)c1`, the Emax was 100% (CNR1; calcium mobilization, agonist; CHO-K1 expressing Gαq16; relative to: CP55,940 maximum).
`O=[N+]([O-])c1ccc(O[C@H]2O[C@H](CO)[C@H](O)[C@H](O)[C@H]2O)cc1` — result for “forward rate constant”: 64 ± 5 s⁻¹ (lacY (Escherichia coli, UniProt P02920, I32C/N245C); cytoplasmic cavity opening; DDM; Cu2+ cross-linked).
`CCOC(=O)CNC(=O)[C@@H]1CCC/C1=C/[C@@H]1CCCN1C(=O)CNS(=O)(=O)c1cccc2c(N(C)C)cccc12` gave a Kii of 18 ± 8 µM (Prolyl 4-hydroxylase subunit alpha-1, with P4HB subunit (P4HA1, Homo sapiens, UniProt P13674); noncompetitive inhibitor; pH 7.8, 30 °C, together with: α-ketoglutarate (varied)).
For `Nc1ncnc2c1nc(N1CCCCC1)n2[C@@H]1O[C@@H]2COP(O)(=S)O[C@@H]2C1O` (some centres unmarked), the selectivity ratio was 1.7 (cAMP-dependent protein kinase type II-beta regulatory subunit, holoenzyme with catalytic subunit (Prkar2b, Rattus norvegicus, UniProt P12369, S112A); PKA holoenzyme activation, activator, fluorescence anisotropy; relative to: RIIβ over RIα, higher = RIIβ-selective).
With `COc1ccc(Oc2ccc(C(=O)N[C@H](CN3CCN(c4cccc(O)c4)[C@@H](C)C3)C(C)C)cc2)cc1` the Ke was 1380 ± 1050 nM (Delta-type opioid receptor (OPRD1, Homo sapiens, UniProt P41143); antagonist; CHO; together with: DPDPE).
The Km of `c1ccc([C@H]2CO2)cc1` is reported as 6.43 mM (Karenia brevis epoxide hydrolase; substrate; pH 7.0).
The luminescence of `FLPK(Fmoc)-OH (Lys(Fmoc), C-acid; Fmoc = O=C(OCC1c2ccccc2-c2ccccc21)*)` is reported as 129 ± 13% (Fibroblast growth factor 14, with Nav1.6 (Homo sapiens, UniProt Q92915); FGF14-Nav1.6 complex formation, split-luciferase complementation; HEK293 expressing CLuc-FGF14 and CD4-Nav1.6-NLuc; 50 µM, 1 h, 37 °C, 0.5% DMSO; relative to: DMSO).
With `CC(C)[C@H](NC(=O)[C@H](CCC(=O)O)NC(=O)[C@H](CC(=O)O)NC(=O)[C@H](C)NC(=O)[C@H](CC(=O)O)NC(=O)[C@H](CC(N)=O)NC(=O)[C@H](CC(=O)O)NC(=O)[C@H](CO)NC(=O)[C@H](CO)NC(=O)[C@@H](NC(=O)[C@H](CCC(N)=O)NC(=O)[C@H](Cc1ccccc1)NC(=O)[C@H](CC(=O)O)NC(=O)[C@H](CCC(=O)O)NC(=O)[C@H](CC(=O)O)NC(=O)[C@@H](NC(=O)[C@H](CO)NC(=O)[C@H](CCC(=O)O)NC(=O)[C@@H](N)CC(=O)O)C(C)C)C(C)C)C(=O)N[C@@H](C)C(=O)N[C@@H](CCC(=O)O)C(=O)N[C@@H](CCC(=O)O)C(=O)N[C@@H](Cc1ccccc1)C(=O)N[C@@H](CC(=O)O)C(=O)N[C@@H](CO)C(=O)O` the affinity loss was 41 fold (H2A-H2B(30-130) H2B Y45A/M62A, Saccharomyces cerevisiae; ITC; relative to: mutant over wild-type histones Kd).
For `CC1N=C(c2ccccc2F)c2cc(Nc3ccc([N+](=O)[O-])cc3)ccc2NC1=O` (centres unmarked), the inhibition was 41% (Alpha-2C adrenergic receptor (ADRA2C, Homo sapiens, UniProt P18825); ligand displacement, radioligand; 10 µM).
`CN[C@@](C)(C[18F])C(=O)O` has a tissue uptake of 6.5 ± 0.8 %ID/g (SCID mouse MDA-MB-468 xenograft, liver; 30 min, post injection).
The fold resistance of `CC(C)C[C@H](NC(=O)[C@H](Cc1ccccc1)NC(=O)c1cnccn1)B(O)O` is reported as ~3 fold (Proteasome subunits (Trypanosoma cruzi, UniProt Q4CU77+Q4D8U7, I29M); chymotrypsin-like activity; relative to: wild type).
`Oc1ccc2c3c1O[C@H]1c4ncc(-c5ccc(Cl)cc5)cc4C[C@@]4(O)[C@@H](C2)N(CC2CC2)CC[C@]314`: “EC50 fold change” 37 fold (Delta-type opioid receptor (Oprd1, Rattus norvegicus, UniProt P33533); yohimbine-treated rats, midbrain membranes; intraperitoneal, 5 mg/kg; relative to: pretreated over untreated).
The binding enthalpy of `anthraquinone-neomycin` is reported as -5.4 ± 0.2 kcal/mol (poly(dA)•2poly(dT) triplex DNA; isothermal titration calorimetry; concentration not given, pH 5.5, 10 °C, KCl 150 mM).
`N=C(N)NCCNC(=O)C1(Nc2ccccc2)CCN(Cc2ccccc2)CC1`: “highest concentration inactive” ≤ 10 µM (Neuropeptide FF receptor 1 (NPFFR1, Homo sapiens, UniProt Q9GZQ6); receptor activation, agonist).
For `CC(C)(C)C1CCCC(C(C)(C)C)C1O` (centres unmarked), “decrease in efficacy” read > 4 fold (Potassium/sodium hyperpolarization-activated cyclic nucleotide-gated channel 1 (Hcn1, Mus musculus, UniProt O88704); V1/2 shift, two-electrode voltage clamp; Xenopus oocytes; relative to: cyclohexanol over corresponding phenol).
`Clc1ccc(Cl)c(-c2cc(Cl)c(Cl)cc2Cl)c1` gave an EC20 of 1.03 µM (Ryanodine receptor 1; [3H]ryanodine binding; rainbow trout, skeletal muscle microsomes).
For `CC(C)Oc1ccccc1S(=O)(=O)N1CC(c2nc(-c3ccsc3)no2)C1`, activity read “inactive” (Calcium-activated potassium channel subunit alpha-1, with beta-3 subunit (KCNMA1, Homo sapiens, UniProt Q12791); HEK293; 30 µM).
For `CC[C@H](C)[C@H](NC(=O)[C@H](CCCNC(=N)N)NC(=O)[C@H](CCCNC(=N)N)NC(=O)[C@H](CC(C)C)NC(=O)[C@H](CCC(N)=O)NC(=O)[C@H](CCC(=O)O)NC(=O)[C@H](C)NC(=O)[C@@H](NC(=O)[C@H](CNC(=O)c1cc(S(=O)(=O)F)ccc1C)NC(C)=O)[C@@H](C)CC)C(=O)NCC(=O)N[C@@H](CC(=O)O)C(=O)N[C@@H](CCCNC(=N)N)C(=O)N[C@@H](Cc1ccccc1)C(N)=O`, the kinact was 0.0193 s⁻¹ (Induced myeloid leukemia cell differentiation protein Mcl-1 (MCL1, Homo sapiens, UniProt Q07820); cell-free assay, inhibitor).
For `KQTARKSTGGWW (palmitoyl-Lys9)`, the kcat/Km was 28.8 ± 7 M⁻¹ s⁻¹ (Histone deacetylase 8 (HDAC8, Homo sapiens, UniProt Q9BY41); substrate, HPLC; peptide; 1 µM, 1 h, pH 8, 37 °C).
For `CCCCSS(C)(=O)=O`, GABA current read “decreased” (Gabrg2/GABRB2/Gabra1 (Rattus norvegicus, UniProt P18508+P47870+P62813, C260A/C282A/C312A/C319A/C341A/Q255C); covalent modifier, two-electrode voltage clamp; Xenopus laevis oocytes; 0.5 mM, labelled without GABA, together with: GABA EC10; relative to: before labelling).
For `O=C1C[C@@H](c2ccc(O)c(O)c2)Oc2cc(O)cc(O)c21`, “substrate inhibition onset” read > 16 µM (Sulfotransferase 1A1 (SULT1A1, Homo sapiens, UniProt P50225); substrate; recombinant enzyme).
Under “decarbamoylation rate constant k3”, `CC(C)c1ccc(NC(=O)Oc2ccc3c(c2)[C@]2(C)CCN[C@@H]2N3)cc1` is recorded as 0.501 ± 0.006 h⁻¹ (Cholinesterase (BCHE, Homo sapiens, UniProt P06276); inhibitor, immobilized enzyme reactor, HPLC-UV; immobilized recombinant human enzyme; 30 °C, after near-complete inhibition).
With `Nc1ncnc2c1ncn2[C@@H]1O[C@@H]2COP(=O)(O)O[C@H]3[C@@H](O)[C@H](n4cnc5c(=O)[nH]cnc54)O[C@@H]3COP(=O)(O)O[C@H]2[C@H]1O` the degradation rate was 1.3 ± 0.2 mol/min/mol enzyme (gdpP, residues 84-659 (Bacillus subtilis, UniProt P37484); substrate, HPLC; 100 µM, 37 °C, upper limit if undegraded 24 h, together with: enzyme 1 µM).

Excerpt of the above:
For `Ac-QDEVD-pNA (N-acetyl, C-pNA; pNA = O=[N+]([O-])c1ccc(N*)cc1)`, the kcat/Km was 1170 ± 167 M⁻¹ s⁻¹ (Caspase-8 (CASP8, Homo sapiens, UniProt Q14790); substrate hydrolysis, substrate, colorimetric; pH 7.5).
For `CCc1c(C(=O)NCCc2ccc(N3CCCCC3)cc2)[nH]c2ccc(Cl)cc12`, “Emax of anandamide” read 28.4 ± 2.07% (CNR1; cAMP inhibition, negative allosteric modulator; HEK-CRE; 1 µM, 4 h, together with: forskolin 10 µM).
